Measurements from different studies.
Compare with care: the assays were run in different laboratories. Values joined by “and” are separate records of one study, mostly repeats; a detail may differ. ± gives the spread as reported.

CCCCCc1cc(O)c2c(c1)OC(C)(C)[C@@H]1CCC(C)=C[C@@H]21
number of modulated brain regions (HPLC-MS/MS, item: A-Taur; female CD1 mouse, brain; dose not given, 2 h): 5

C#Cc1ccc2c(c1)C(c1ccccn1)=NCc1c(-c3cnco3)ncn1-2
effective dose (increase in zones cleared; mouse, lactic acid-depressed nesting; relative to: vehicle): 10 mg/kg

CCCCCn1cc(C(=O)c2ccc(CC)c3ccccc23)c2ccccc21
duration of locomotor depression (male ND4 Swiss-Webster mice; intraperitoneal, 1 to 10 mg/kg): 190 min

Cc1cc([C@H]2C[C@@H]3CC[C@H]([C@H]2c2cc(-c4ccccc4)no2)N3C)ccc1Cl
ED50 (nicotine-induced antinociception, antagonist, hot-plate test; mouse; added: nicotine 2.5 mg/kg sc): > 20 mg/kg

Polymyxin B
endotoxin neutralizing concentration (LAL test; human plasma; 60 min, 37 °C, 50% reduction, added: Escherichia coli LPS 0.5 ng/mL): < 100 ng/mL and 63 ng/mL

CCC1=NC(C)CC1(c1ccccc1)c1ccccc1.Cl (stereo not drawn)
time in open arms (elevated plus maze; Sprague-Dawley rat; subcutaneous, dose not given, 30 min, 300 s test): 143 s

COc1ccc2c(c1)[C@]13CCCC[C@@H]1[C@H](C2)N(C)CC3
MDMA-induced 5-HT depletion (rat, striatum, hippocampus, cortex; intraperitoneal, 30 mg/kg, three doses, 1 week, added: MDMA 20 mg/kg oral; relative to: MDMA with saline): no effect

Cc1ccc([C@H]2C[C@@H]3CC[C@H]([C@H]2c2cc(-c4ccc(Cl)cc4)no2)N3C)cc1
ED50 (nicotine-induced hypothermia, antagonist; mouse; added: nicotine 2.5 mg/kg sc): > 20 mg/kg

C[C@H]1CNCCc2ccc(Cl)cc21
Tmax (male Sprague-Dawley rat, plasma; subcutaneous, 1 mg/kg, single dose): 15 min

C=C1C[C@@H]2[C@H](CC[C@]3(C)C(=O)CC[C@@H]23)[C@@]2(C)C=CC(=O)C=C12
median plasma concentration (LC-MS/MS; postmenopausal breast cancer women, plasma; oral, 25 mg/day, 2 h, CYP3A4*22 non-carriers, outlier excluded): 7.7 ng/mL

CN[C@@](C)(C[18F])C(=O)O
tracer uptake (SK-OV-3 tumour model; host not given, heart; 15 min, tumour-bearing): 2.3 %ID/g

CCCC(C(=O)c1ccc2c(c1)OCO2)N1CCCC1 (stereo not drawn)
effective dose (locomotor activity increase; ICR mice; intraperitoneal, 60 min; relative to: saline): 1 to 3 mg/kg

COc1ccc(-c2cc([C@H]3[C@@H](c4ccc(Cl)cc4)C[C@@H]4CC[C@H]3N4C)on2)cc1
ED50 (nicotine-induced antinociception, antagonist, hot-plate test; mouse; added: nicotine 2.5 mg/kg sc): > 20 mg/kg

C[C@H](N)Cc1ccccc1
locomotor activity (C57BL/6J mouse; intraperitoneal, 3 mg/kg, 5.5 h cumulative; relative to: vehicle-treated mice): ~9 fold

Cc1ccc([C@H]2C[C@@H]3CC[C@H]([C@H]2C(=O)OC(C)C)N3C)cc1
ED50 (nicotine-induced antinociception, antagonist, hot-plate test; mouse; added: nicotine 2.5 mg/kg sc): > 20 mg/kg

COc1ccc2cc3[n+](cc2c1OC)CCc1cc2c(cc1-3)OCO2
TBARS (rat, STZ-induced diabetic, liver; oral, 12 mg/kg, day 28): 2.89 ± 0.66 nmol MDA/mg protein

c1ccc(C2(N3CCCCC3)CCCCC2)cc1
inhibition (nicotine-induced antinociception, antagonist, hot-plate test; ICR mouse, male; subcutaneous, 5 mg/kg, 15 min before nicotine): 20%

CNC(C)Cc1ccc2c(c1)OCO2 (racemic)
mood rating (visual analog scale, item: Anxious; human; oral, 0.75 mg/kg, mean over session, unit not given; relative to: pre-dose baseline): 11.5

For quick reference, copied from above:
CCCC(C(=O)c1ccc2c(c1)OCO2)N1CCCC1 (stereo not drawn)
effective dose (locomotor activity increase; ICR mice; intraperitoneal, 60 min; relative to: saline): 1 to 3 mg/kg

COc1ccc(-c2cc([C@H]3[C@@H](c4ccc(Cl)cc4)C[C@@H]4CC[C@H]3N4C)on2)cc1
ED50 (nicotine-induced antinociception, antagonist, hot-plate test; mouse; added: nicotine 2.5 mg/kg sc): > 20 mg/kg

C[C@H](N)Cc1ccccc1
locomotor activity (C57BL/6J mouse; intraperitoneal, 3 mg/kg, 5.5 h cumulative; relative to: vehicle-treated mice): ~9 fold
